Values quoted from earlier work, collected from citations in different studies.
Each line is one published result; not all experiments were run side by side. ± marks the error that the study gave. ≈ marks a conversion by molar mass, not a printed value.
Chain of UniProt Q8WTQ7 (whole entry, looked up): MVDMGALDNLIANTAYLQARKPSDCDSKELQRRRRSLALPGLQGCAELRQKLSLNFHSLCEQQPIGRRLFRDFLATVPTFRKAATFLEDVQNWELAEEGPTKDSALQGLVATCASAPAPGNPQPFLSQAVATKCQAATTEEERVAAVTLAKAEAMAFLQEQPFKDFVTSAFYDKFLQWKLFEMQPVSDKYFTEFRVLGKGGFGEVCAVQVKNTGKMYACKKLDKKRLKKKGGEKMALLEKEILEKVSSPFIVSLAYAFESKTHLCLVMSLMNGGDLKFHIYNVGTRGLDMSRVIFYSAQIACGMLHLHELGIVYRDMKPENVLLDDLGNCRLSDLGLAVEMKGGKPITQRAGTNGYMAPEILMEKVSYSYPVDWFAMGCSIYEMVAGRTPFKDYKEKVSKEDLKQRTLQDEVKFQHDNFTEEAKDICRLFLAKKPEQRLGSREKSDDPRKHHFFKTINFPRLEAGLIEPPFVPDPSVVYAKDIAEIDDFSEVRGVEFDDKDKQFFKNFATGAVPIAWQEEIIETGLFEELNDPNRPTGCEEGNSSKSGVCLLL

Structure (SMILES)	target or system	assay	test system	conditions	scale	endpoint	result
CC1(C)S[C@@H]2[C@H](NC(=O)[C@H](N)c3ccccc3)C(=O)N2[C@H]1C(=O)O	Acinetobacter baumannii	–	clinical isolate RKI-No_16/16	–	–	MIC	> 16 µg/mL
C=CC(=O)N1CCC([C@@H]2CCNc3c(C(N)=O)c(-c4ccc(Oc5ccccc5)cc4)nn32)CC1	–	–	human patients	oral, 160 mg once daily, day 8	–	AUC(0-8h)	1280 ± 473 ng·h/mL
CC1(C)CCC(CN2CCN(c3ccc(C(=O)NS(=O)(=O)c4ccc(NCC5CCOCC5)c([N+](=O)[O-])c4)c(Oc4cnc5[nH]ccc5c4)c3)CC2)=C(c2ccc(Cl)cc2)C1	–	legacy population PK model	human	–	–	apparent intercompartmental clearance (Q/F)	97.2 L/day
Cc1cc(=O)n(-c2ccccc2)n1C	–	–	rat	–	–	plasma clearance	5.1 mL/min/kg
Cc1cn([C@H]2C=C[C@@H](CO)O2)c(=O)[nH]c1=O	–	–	rat	50 mg/kg	–	oral bioavailability	102%
CN(C)C(=N)N=C(N)N	–	–	healthy human subjects	–	–	rate constant k21	0.0104 min⁻¹
CC1=N/C(=C\c2cc(F)c(O)c(F)c2)C(=O)N1C	–	–	–	–	–	molar extinction coefficient	30100 M⁻¹ cm⁻¹
C=C1[C@H](CO)[C@@H](O)C[C@@H]1n1cnc2c(=O)[nH]c(N)nc21	–	–	dog	–	–	oral bioavailability	91%
CN[C@@H](C)C(=O)N[C@H]1CN(S(=O)(=O)c2cccc(S(=O)(=O)N3CC[C@H]4CC[C@@H](C(=O)NC(c5ccccc5)c5ccccc5)N4C(=O)[C@@H](NC(=O)[C@H](C)NC)C3)c2)CC[C@H]2CC[C@@H](C(=O)NC(c3ccccc3)c3ccccc3)N2C1=O	–	–	advanced solid tumour patients	dose not given, monotherapy	–	TEAE nausea incidence	21.7%
C=C[C@@H]1C[C@]1(NC(=O)[C@@H]1C[C@@H]2CN1C(=O)[C@H](C(C)(C)C)NC(=O)O[C@@H]1C[C@H]1CCCCCc1nc3ccc(OC)cc3nc1O2)C(=O)NS(=O)(=O)C1CC1	–	–	bile duct-cannulated rats	oral, time not given	–	fraction of dose recovered in bile	28%
N=C(N)NCCC[C@H](NC(=O)[C@H](CCCNC(=N)N)NC(=O)[C@H](CCCCN)NC(=O)[C@H](CCC(N)=O)NC(=O)[C@H](CCCCN)NC(=O)[C@H](Cc1ccc(O)cc1)NC(=O)[C@@H](N)CCCCN)C(=O)N[C@@H](CO)C(=O)N[C@@H](Cc1ccc(O)cc1)C(=O)N[C@@H](CCCCN)C(=O)O	–	–	beagle dog	intravenous, dose not given, repeated-dose toxicity	–	NOAEL	1150 µg/kg/day
CNC(C)C1CCC(N)C(OC2C(N)CC(N)C(OC3OCC(C)(O)C(NC)C3O)C2O)O1 (stereo not drawn)	Acinetobacter baumannii	–	clinical isolate RKI-No_584/16	–	–	MIC	1 µg/mL (≈ 2.09 µM)
Cc1cc(-c2nccc3c2ccn3CC(=O)Nc2ccc(-c3cnccn3)cn2)ccn1	–	–	rat	20 mg/kg/day, 1 month, repeat dosing	–	Cmax, total	13.6 µM
O=C(O)CN1CCN(CC(=O)O)CCN(CC(=O)O)CCN(CC(=O)O)CC1	–	pH-potentiometry, item: logK4H	0.15 M NaClO4	25 °C	–	protonation constant (log)	4.05
Cn1ncnc1[C@H]1c2n[nH]c(=O)c3cc(F)cc(c23)N[C@@H]1c1ccc(F)cc1	–	–	human, severe renal impairment	dose not given, monotherapy	reference: normal renal function	AUC(0-24) increase	~96.4%
CN(C)C(=O)c1cc2cnc(Nc3ccc(N4CCNCC4)cn3)nc2n1C1CCCC1	–	–	rat	dose not given	–	oral bioavailability	37%
CO[C@@H](C)Cn1c(=O)n(C)c2cnc3ccc(-c4cncc(C(C)(C)O)c4)cc3c21	–	–	human	20 mg and 325 mg, day 1, mean	–	apparent clearance CL/F	75.6 L/h
CCCC(CCC)C(=O)O	–	–	mouse	i.p., corneal kindling model	–	protective index	4.2
c1ccc2c(c1)ccc1ccccc12	–	–	pooled human liver microsomes	0.25 µM	–	metabolism rate	99.7 pmol/min/mg
NC(=O)N1c2ccccc2CC(O)c2ccccc21 (stereo not drawn)	–	non-compartmental analysis	healthy adults	–	–	clearance	~3 L/h
COc1cc2c(Oc3ccc4[nH]c(C)cc4c3F)ccnc2cc1OCC1(N)CC1	–	–	Beagle dog	0.12 mg/kg, 8 h, NOAEL dose	–	AUC(0-t)	51.7 ng·h/mL
Nc1cc(C(F)(F)F)c(-c2nc(N3CCOCC3)nc(N3CCOCC3)n2)cn1	GRK7 (Homo sapiens, UniProt Q8WTQ7)	enzyme activity	–	10 µM	reference: untreated	remaining activity	100%
CC(C)(CO)c1nc(-c2cccc(NS(=O)(=O)c3c(F)cccc3F)c2F)c(-c2ccnc(N)n2)s1	–	–	human	dose not given, dabrafenib monotherapy	reference: metabolite over dabrafenib	metabolite to parent ratio	~90%
CCCCC(C)C(=O)O (stereo not drawn)	–	small eyes	zebrafish embryo	nominal concentration	–	EC10	> 1000 µM
